Measured values collected from several papers.
Every numbered part comes from another study and shows a few of its results, in no order. pEC50: −log10 of the molar value.
Chain of UniProt P42679 (whole entry, looked up): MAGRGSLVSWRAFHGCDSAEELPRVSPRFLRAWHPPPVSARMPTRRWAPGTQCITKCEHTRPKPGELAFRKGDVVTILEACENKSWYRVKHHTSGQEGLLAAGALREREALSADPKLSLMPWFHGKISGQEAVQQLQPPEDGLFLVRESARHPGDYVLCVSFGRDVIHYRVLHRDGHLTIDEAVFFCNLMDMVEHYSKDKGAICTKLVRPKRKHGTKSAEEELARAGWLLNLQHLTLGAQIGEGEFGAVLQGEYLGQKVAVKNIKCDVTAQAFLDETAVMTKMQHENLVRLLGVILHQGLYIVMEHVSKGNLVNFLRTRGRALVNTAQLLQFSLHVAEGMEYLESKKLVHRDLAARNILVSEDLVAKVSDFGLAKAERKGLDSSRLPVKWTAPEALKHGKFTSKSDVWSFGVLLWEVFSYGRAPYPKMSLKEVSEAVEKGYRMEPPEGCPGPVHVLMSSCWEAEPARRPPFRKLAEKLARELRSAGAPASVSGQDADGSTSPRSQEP
Chain of UniProt P42680 (whole entry, looked up): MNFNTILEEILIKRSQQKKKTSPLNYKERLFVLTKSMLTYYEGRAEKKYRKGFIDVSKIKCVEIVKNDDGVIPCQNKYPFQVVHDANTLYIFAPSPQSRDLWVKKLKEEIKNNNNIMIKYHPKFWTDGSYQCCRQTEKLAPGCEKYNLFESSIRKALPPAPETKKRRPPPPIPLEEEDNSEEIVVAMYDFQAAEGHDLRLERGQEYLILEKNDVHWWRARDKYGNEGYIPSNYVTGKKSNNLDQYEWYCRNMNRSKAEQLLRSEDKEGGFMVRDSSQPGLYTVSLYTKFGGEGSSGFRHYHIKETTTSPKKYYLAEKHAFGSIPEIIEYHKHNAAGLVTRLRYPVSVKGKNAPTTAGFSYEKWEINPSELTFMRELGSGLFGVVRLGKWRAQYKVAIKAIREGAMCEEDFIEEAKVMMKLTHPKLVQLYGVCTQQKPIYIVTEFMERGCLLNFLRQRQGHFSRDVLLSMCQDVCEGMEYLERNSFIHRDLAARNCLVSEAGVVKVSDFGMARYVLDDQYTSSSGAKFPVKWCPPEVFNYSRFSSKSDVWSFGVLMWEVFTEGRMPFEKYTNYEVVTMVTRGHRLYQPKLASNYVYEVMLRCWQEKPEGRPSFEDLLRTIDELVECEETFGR
Chain of UniProt P07948 (whole entry, looked up): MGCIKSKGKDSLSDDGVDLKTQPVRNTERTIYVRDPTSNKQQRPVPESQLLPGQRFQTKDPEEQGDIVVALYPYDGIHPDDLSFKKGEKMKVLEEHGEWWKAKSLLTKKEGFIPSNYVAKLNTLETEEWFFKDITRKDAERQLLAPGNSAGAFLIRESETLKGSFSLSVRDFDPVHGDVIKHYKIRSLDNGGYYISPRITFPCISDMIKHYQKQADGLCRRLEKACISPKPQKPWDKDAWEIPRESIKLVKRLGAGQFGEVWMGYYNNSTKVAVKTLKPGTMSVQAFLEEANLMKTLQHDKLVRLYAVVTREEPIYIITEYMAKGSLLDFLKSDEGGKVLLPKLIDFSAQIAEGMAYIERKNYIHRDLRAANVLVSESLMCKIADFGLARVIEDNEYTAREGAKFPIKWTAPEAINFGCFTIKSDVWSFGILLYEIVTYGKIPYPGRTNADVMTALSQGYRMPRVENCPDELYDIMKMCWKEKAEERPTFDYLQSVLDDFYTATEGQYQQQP
Chain of UniProt P14616 (whole entry, looked up): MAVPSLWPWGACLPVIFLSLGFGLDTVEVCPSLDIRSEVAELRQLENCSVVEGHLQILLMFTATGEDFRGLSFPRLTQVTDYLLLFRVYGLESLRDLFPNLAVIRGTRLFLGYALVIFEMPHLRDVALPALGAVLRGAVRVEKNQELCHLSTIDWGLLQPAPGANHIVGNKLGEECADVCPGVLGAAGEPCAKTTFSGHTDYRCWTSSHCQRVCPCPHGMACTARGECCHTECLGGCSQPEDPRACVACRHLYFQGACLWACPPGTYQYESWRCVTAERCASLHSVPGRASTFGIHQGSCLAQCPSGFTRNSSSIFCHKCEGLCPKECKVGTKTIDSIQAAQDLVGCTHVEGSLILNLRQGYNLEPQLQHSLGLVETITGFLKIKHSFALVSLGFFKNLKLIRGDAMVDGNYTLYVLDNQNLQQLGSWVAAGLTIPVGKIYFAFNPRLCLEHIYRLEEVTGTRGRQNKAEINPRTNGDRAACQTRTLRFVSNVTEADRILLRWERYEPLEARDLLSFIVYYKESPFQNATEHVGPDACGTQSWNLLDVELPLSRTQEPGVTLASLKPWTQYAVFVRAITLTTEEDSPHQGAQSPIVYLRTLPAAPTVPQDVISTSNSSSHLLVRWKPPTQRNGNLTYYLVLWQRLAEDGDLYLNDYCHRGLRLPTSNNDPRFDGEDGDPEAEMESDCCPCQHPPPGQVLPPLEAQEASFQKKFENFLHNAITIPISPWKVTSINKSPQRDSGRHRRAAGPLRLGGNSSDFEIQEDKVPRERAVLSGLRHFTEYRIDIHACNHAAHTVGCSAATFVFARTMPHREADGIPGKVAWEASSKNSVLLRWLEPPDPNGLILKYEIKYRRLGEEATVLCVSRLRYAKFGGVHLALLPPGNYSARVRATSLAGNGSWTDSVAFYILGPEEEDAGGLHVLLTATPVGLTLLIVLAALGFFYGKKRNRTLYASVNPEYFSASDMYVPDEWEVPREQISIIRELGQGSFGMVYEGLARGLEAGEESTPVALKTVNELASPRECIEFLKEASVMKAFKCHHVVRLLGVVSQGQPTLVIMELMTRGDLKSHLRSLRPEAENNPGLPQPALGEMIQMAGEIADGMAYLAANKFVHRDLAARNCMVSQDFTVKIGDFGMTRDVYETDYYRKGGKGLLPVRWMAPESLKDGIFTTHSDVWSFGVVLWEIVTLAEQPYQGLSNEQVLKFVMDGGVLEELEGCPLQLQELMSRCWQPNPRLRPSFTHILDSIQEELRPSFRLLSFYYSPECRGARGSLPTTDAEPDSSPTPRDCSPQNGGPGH
Chain of UniProt O75582 (whole entry, looked up): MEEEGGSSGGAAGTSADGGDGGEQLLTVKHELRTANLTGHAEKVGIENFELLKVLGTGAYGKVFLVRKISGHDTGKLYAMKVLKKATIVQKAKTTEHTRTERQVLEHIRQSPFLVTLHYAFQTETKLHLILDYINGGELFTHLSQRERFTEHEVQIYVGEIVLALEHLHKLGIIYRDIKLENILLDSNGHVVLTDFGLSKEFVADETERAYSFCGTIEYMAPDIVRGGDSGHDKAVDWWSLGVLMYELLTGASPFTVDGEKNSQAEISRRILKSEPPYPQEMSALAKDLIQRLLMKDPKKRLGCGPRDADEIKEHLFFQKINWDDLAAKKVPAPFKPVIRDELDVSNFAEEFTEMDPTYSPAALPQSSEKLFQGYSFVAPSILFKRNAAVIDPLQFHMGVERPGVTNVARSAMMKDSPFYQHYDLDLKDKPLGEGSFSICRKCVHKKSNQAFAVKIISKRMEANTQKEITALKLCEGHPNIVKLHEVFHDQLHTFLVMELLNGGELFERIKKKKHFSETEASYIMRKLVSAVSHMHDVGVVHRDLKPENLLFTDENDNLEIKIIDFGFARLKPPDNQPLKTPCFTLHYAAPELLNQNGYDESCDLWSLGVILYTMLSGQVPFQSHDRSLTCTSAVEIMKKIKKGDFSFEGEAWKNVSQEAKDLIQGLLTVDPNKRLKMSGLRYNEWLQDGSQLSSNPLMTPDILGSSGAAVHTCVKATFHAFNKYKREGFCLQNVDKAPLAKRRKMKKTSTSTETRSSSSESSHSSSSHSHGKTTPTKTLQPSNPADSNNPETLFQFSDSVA
Chain of UniProt Q96GD4 (whole entry, looked up): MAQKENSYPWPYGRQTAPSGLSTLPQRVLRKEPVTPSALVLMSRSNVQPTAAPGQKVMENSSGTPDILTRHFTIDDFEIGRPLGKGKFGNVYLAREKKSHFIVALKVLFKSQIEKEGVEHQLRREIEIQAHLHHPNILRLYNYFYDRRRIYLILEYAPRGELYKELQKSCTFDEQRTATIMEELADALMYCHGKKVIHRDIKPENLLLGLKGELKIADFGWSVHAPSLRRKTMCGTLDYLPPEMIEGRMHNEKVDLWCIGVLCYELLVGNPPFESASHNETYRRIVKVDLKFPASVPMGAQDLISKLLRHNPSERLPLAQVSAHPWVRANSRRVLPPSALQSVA

Study 1 — mode: agonist; quantity: pEC50
Target: Beta-1 adrenergic receptor (ADRB1, Homo sapiens, UniProt P08588)
Chain of UniProt P08588 (whole entry, looked up): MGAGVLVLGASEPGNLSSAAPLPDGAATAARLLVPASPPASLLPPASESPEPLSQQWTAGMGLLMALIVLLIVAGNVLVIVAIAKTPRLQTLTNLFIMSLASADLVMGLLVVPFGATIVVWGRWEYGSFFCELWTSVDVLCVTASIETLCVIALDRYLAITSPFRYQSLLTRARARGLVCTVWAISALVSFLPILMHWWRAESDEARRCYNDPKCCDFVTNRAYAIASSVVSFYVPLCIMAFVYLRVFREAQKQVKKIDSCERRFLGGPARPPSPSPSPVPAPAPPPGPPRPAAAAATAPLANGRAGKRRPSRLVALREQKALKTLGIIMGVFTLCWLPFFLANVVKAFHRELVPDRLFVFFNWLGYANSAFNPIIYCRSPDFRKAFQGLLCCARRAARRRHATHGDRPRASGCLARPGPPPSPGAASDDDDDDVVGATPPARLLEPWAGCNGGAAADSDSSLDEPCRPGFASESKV
CN(c1ccccc1)c1cc(=O)c2ccnc(NC3CCOCC3)c2o1: ≤ 4.00
COc1ccc2c(Cn3nnc(-c4ccccc4C)n3)cc(=O)oc2c1: ≤ 4.00
CCCC(NCC(O)COc1ccc(-c2ccccc2)cc1)c1ccccc1 (stereo not shown): ≤ 4.00
CNCc1ccc(CSCCN/C(=N/CC(O)c2ccc(O)cc2)N[S+](C)(=O)[O-])o1 (stereo not shown): 4.95
CC(=O)Nc1ccc([C@@H](O)[C@H]2COCC(=O)N2CCCc2ccccc2)cc1: ≤ 4.00
O=C(c1cc2ccccc2o1)N1CCN(c2cccc(Cl)c2)CC1: ≤ 4.00
COc1ccccc1N1CCN([C@@H]2[C@H](O)[C@H](CO)O[C@@H]2CN(Cc2ccc(F)cc2)Cc2ccc(F)cc2)CC1: 5.80
CCOc1ccc(C(O)Cn2ccn3nc(-c4ccccc4C)cc3c2=O)cc1 (stereo not shown): ≤ 4.00
COc1ccccc1N1CCN(c2ncncc2-c2nc(-c3ccccc3)no2)CC1: ≤ 4.00
Cc1cc(-c2cc(C)c3ccccc3n2)c(C)o1: ≤ 4.00

Study 2 — effect on: enzyme activity; mode: inhibitor; tested at: 10 µM; quantity: inhibition
Target: Calcium/calmodulin-dependent protein kinase type II subunit alpha (CAMK2A, Homo sapiens, UniProt Q9UQM7)
Chain of UniProt Q9UQM7 (whole entry, looked up): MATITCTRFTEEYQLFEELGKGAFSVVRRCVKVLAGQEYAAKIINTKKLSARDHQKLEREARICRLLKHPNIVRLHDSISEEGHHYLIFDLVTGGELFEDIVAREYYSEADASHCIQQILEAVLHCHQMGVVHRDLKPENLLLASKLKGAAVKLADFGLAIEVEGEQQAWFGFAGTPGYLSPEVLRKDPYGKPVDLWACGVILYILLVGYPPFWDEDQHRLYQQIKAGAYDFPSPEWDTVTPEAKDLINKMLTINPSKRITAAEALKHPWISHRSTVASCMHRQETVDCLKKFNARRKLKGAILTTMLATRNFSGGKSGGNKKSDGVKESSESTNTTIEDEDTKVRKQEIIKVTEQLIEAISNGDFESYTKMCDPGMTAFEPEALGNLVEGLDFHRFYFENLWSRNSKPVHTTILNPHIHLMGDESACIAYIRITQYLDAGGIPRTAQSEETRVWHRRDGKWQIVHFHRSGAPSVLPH
CC[C@H]1OC(=O)[C@H](C)[C@@H](O[C@H]2C[C@@](C)(OC)[C@@H](O)[C@H](C)O2)[C@H](C)[C@@H](O[C@@H]2O[C@H](C)C[C@H](N(C)C)[C@H]2O)[C@](C)(O)C[C@@H](C)C(=O)[C@H](C)[C@@H](O)[C@]1(C)O: 12%
CC(=O)OCCC(C)CCC=C(C)C (stereo not shown): -8%
COc1cc(/C=C/C(=O)O[C@@H]2[C@H](O)[C@@H](O[C@@H]3O[C@@H](C)[C@H](O[C@@H]4OC[C@@H](O)[C@H](O[C@@H]5OC[C@H](O)[C@H](O)[C@H]5O)[C@H]4O)[C@@H](O[C@@H]4OC[C@](O)(CO)[C@H]4O)[C@H]3O)[C@H](OC(=O)[C@]34CCC(C)(C)C[C@H]3C3=CC[C@@H]5[C@@]6(C)C[C@H](O)[C@H](O[C@@H]7O[C@H](CO)[C@@H](O)[C@H](O)[C@H]7O)[C@@](C)(C(=O)O)[C@@H]6CC[C@@]5(C)[C@]3(CO)CC4)O[C@@H]2C)cc(OC)c1OC: -26%
O=C(CO)[C@@H](O[C@H]1O[C@H](CO)[C@@H](O)[C@H](O)[C@H]1O)[C@H](O)[C@H](O)CO: 6%
CCOc1ccc(/C=C2\NCCc3cc(OCC)c(OCC)cc32)cc1OCC: -10%
C[C@H](CC[C@@H](O[C@@H]1O[C@H](CO)[C@@H](O)[C@H](O)[C@H]1O)C(C)(C)O)[C@H]1CC[C@@]2(C)[C@@H]3CC=C4[C@@H](CC[C@H](O[C@@H]5O[C@H](CO)[C@@H](O)[C@H](O)[C@H]5O)C4(C)C)[C@]3(C)[C@H](O)C[C@]12C: 9%
Cc1cc(C(=O)O)ccc1O: -58%

Study 3 — tested at: 1 µM; quantity: remaining binding
Structure (SMILES): Cc1ccc(NC(=O)c2ccnc(C(F)(F)F)c2)cc1-c1cc(OCCO)nc(N2CCOCC2)c1
Cyclin-dependent kinase-like 2 (CDKL2, Homo sapiens, UniProt Q92772); competitive binding panel; reference: vehicle: 96%
Tyrosine-protein kinase SYK (SYK, Homo sapiens, UniProt P43405); competitive binding panel; reference: vehicle: 100%
Mitogen-activated protein kinase kinase kinase 1 (MAP3K1, Homo sapiens, UniProt Q13233); competitive binding panel; reference: vehicle: 100%
Ribosomal protein S6 kinase alpha-5 (RPS6KA5, Homo sapiens, UniProt O75582); competitive binding scan; N-terminal kinase domain 1: 93%
Serine/threonine-protein kinase SIK3 (SIK3, Homo sapiens, UniProt Q9Y2K2); competitive binding, DiscoverX scanMAX binding: 86%
Tyrosine-protein kinase ABL1 (ABL1, Homo sapiens, UniProt P00519); competitive binding, scanMAX; phosphorylated, 1000 nM: 74%
Vascular endothelial growth factor receptor 3 (FLT4, Homo sapiens, UniProt P35916); competitive binding panel; reference: vehicle: 79%
Serine/threonine-protein kinase 36 (STK36, Homo sapiens, UniProt Q9NRP7); competitive binding panel; reference: vehicle: 90%
Megakaryocyte-associated tyrosine-protein kinase (MATK, Homo sapiens, UniProt P42679); competitive binding; CTK: 90%
Macrophage-stimulating protein receptor (MST1R, Homo sapiens, UniProt Q04912); competitive binding panel; reference: vehicle: 87%
Serine/threonine-protein kinase NIM1 (NIM1K, Homo sapiens, UniProt Q8IY84); competitive binding, DiscoverX scanMAX binding: 84%

Study 4 — effect on: cell-free assay; method: competition with immobilised ligand; tested at: 1 µM; quantity: remaining binding
Structure (SMILES): CO[C@H]1CC[C@H](CNc2ccc(S(=O)(=O)NC(=O)c3ccc(N4CCN(CC5=C(c6ccc(Cl)cc6)CC(C)(C)CC5)CC4)cc3Oc3cnc4[nH]ccc4c3)cc2[N+](=O)[O-])CC1
Interferon-induced, double-stranded RNA-activated protein kinase (EIF2AK2, Homo sapiens, UniProt P19525): 90%
Tyrosine-protein kinase Lyn (LYN, Homo sapiens, UniProt P07948): 74%
Aurora kinase A (AURKA, Homo sapiens, UniProt O14965): 100%
Serine/threonine-protein kinase Nek4 (NEK4, Homo sapiens, UniProt P51957): 100%
Aurora kinase B (AURKB, Homo sapiens, UniProt Q96GD4): 100%
Tyrosine-protein kinase JAK3, JH1 (JAK3, Homo sapiens, UniProt P52333): 84%
Wee1-like protein kinase 2 (WEE2, Homo sapiens, UniProt P0C1S8): 81%
Calcium/calmodulin-dependent protein kinase type II subunit delta (CAMK2D, Homo sapiens, UniProt Q13557): 96%
Insulin receptor-related protein (INSRR, Homo sapiens, UniProt P14616): 100%
MAP kinase-activated protein kinase 2 (MAPKAPK2, Homo sapiens, UniProt P49137): 93%
Ephrin type-A receptor 1 (EPHA1, Homo sapiens, UniProt P21709): 100%
Receptor-type tyrosine-protein kinase FLT3 (FLT3, Homo sapiens, UniProt P36888, K663Q): 91%
Mast/stem cell growth factor receptor Kit (KIT, Homo sapiens, UniProt P10721, D816H): 76%
Serine/threonine-protein kinase Nek7 (NEK7, Homo sapiens, UniProt Q8TDX7): 82%
Tyrosine-protein kinase Tec (TEC, Homo sapiens, UniProt P42680): 74%

Repeated from above (study 1):
CCCC(NCC(O)COc1ccc(-c2ccccc2)cc1)c1ccccc1 (stereo not shown): ≤ 4.00
CNCc1ccc(CSCCN/C(=N/CC(O)c2ccc(O)cc2)N[S+](C)(=O)[O-])o1 (stereo not shown): 4.95
CC(=O)Nc1ccc([C@@H](O)[C@H]2COCC(=O)N2CCCc2ccccc2)cc1: ≤ 4.00
O=C(c1cc2ccccc2o1)N1CCN(c2cccc(Cl)c2)CC1: ≤ 4.00
